Experimental data of several laboratories.
Each line is one published result; not all experiments were run side by side. pIC50: −log10 of the molar value.
Target: Cytochrome P450 2D6 (CYP2D6, Homo sapiens, UniProt P10635)
Sequence of UniProt P10635 (whole entry, looked up): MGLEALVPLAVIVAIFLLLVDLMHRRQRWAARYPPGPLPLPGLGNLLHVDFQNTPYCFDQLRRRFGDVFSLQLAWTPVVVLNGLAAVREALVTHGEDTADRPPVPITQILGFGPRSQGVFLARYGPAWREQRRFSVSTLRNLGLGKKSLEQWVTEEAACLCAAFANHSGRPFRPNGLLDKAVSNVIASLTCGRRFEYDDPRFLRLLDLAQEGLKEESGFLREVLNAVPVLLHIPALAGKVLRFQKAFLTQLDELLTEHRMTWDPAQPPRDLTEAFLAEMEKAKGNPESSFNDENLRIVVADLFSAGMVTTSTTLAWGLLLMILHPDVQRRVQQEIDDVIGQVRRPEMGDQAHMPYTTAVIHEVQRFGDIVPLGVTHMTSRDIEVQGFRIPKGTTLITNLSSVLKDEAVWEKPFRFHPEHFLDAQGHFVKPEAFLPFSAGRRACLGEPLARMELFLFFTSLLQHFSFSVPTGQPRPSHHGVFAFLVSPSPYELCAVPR
Action: inhibitor

Compound	test	test system	setting	pIC50
CC1CCC2(OC1)OC1CC3C4CC=C5CC(OC6OC(CO)C(OC7OC(CO)C(O)C7O)C(O)C6OC6OC(C)C(O)C(O)C6O)CCC5(C)C4CCC3(C)C1(O)C2C (stereo not drawn)	enzyme activity	human, liver microsomes	1 h, pH 7.4	4.86
C=CC(=O)Nc1cc(Nc2nccc(-c3cn(C)c4ccccc34)n2)c(OCC(F)(F)F)nc1N(C)CCN(C)C	enzyme activity	human, liver microsomes		< 4.00
C[C@](C(=O)NC1CCOCC1)(c1cncnc1)N(C(=O)[C@H](F)Cl)c1ccc(OC(F)(F)Cl)cc1	enzyme activity		10 (unit not given)	< 4.30
C[C@@H](c1ccn(Cc2ccc(Cl)cc2Cl)n1)[C@](O)(Cn1cnnn1)c1ccc(F)cc1F	enzyme activity	human, liver microsomes		6.82
O=c1nc(NO)ccn1[C@@H]1O[C@H](CO)[C@@H](O)[C@H]1O	enzyme activity	human, liver microsomes	20 min, pH 7.4	< 4.00
O=C1c2oc3cc(O)c(O)cc3c2C(=O)c2oc3cc(O)c(O)cc3c21	dextromethorphan O-demethylation	pooled human liver microsomes	60 min, pH 7.4, 37 °C, preincubation 0 min without NADPH	5.47
Cc1c(NC(=O)c2ccc3c(c2)CC[C@@H]2C[C@@](O)(C(F)(F)F)CC[C@@]32Cc2ccccc2)ccc[n+]1[O-]	enzyme activity	human, liver microsomes		4.41
CCc1nc(N)nc(N)c1C#CC(C)c1cc(-c2cc(C)nc(C)c2)ccc1OC (stereo not drawn)	enzyme activity, fluorescence		30 min	5.01
C[C@@H](c1ccn(Cc2ccc(OC(F)(F)F)cc2)n1)[C@](O)(Cn1cnnn1)c1ccc(F)cc1F	enzyme activity	human, liver microsomes		6.26
CCC(=O)N(C)c1ccc(Cl)c(Cl)c1	enzyme activity	human, liver microsomes	10 min	< 4.60
CCc1nc(N)nc(N)c1C#CC(C)c1cc(-c2cc(C)nc(C)c2)ccc1Cl (stereo not drawn)	enzyme activity, fluorescence		30 min	< 4.30
COC(=O)c1ccc2c(c1)NC(=O)/C2=C(\Nc1ccc2c(c1)CCN2C(=O)CN1CCOCC1)c1ccccc1		recombinant enzyme	10 min, added: dextromethorphan 5 µM	< 4.10
NC(=O)c1c(F)ccc(OCc2nc3cc(Cl)cnc3s2)c1F	enzyme activity, fluorescence			< 4.47
Cc1cc(/C=C/C#N)cc(C)c1Oc1nc(NC2CCN(Cc3ccc(S(C)(=O)=O)cc3)CC2)nc2ncccc12	enzyme activity		10 min	4.90
C[C@@H](c1ccn(Cc2ccc(Cl)c(Cl)c2)n1)[C@](O)(Cn1cnnn1)c1ccc(F)cc1F	enzyme activity	human, liver microsomes		5.26
COc1ccc2c(c1OCc1ccccc1)C[C@@H](C(=O)O)N(c1nc3ccc(C#N)cc3o1)C2	enzyme activity	human, liver microsomes	15 min, pH 7.4	< 4.30
O=C(NC1CCC(F)(F)CC1)C(c1cncnc1)N(C(=O)C(F)Cl)c1ccc(-c2cncs2)cc1 (stereo not drawn)	enzyme activity		10 (unit not given)	5.19
C=C(C)C(=O)Nc1ccc(-c2c(-c3ccc(Oc4nccc(C)n4)cc3)c3c(N)ncnc3n2C)cc1	enzyme activity			5.44

For quick reference, copied from above:
Compound	test	test system	setting	pIC50
Cc1cc(/C=C/C#N)cc(C)c1Oc1nc(NC2CCN(Cc3ccc(S(C)(=O)=O)cc3)CC2)nc2ncccc12	enzyme activity		10 min	4.90
C[C@@H](c1ccn(Cc2ccc(Cl)c(Cl)c2)n1)[C@](O)(Cn1cnnn1)c1ccc(F)cc1F	enzyme activity	human, liver microsomes		5.26
COc1ccc2c(c1OCc1ccccc1)C[C@@H](C(=O)O)N(c1nc3ccc(C#N)cc3o1)C2	enzyme activity	human, liver microsomes	15 min, pH 7.4	< 4.30
